# Results from different studies.
# Every numbered part comes from another study and shows a few of its results, in no order.
# Chain of UniProt Q8WTQ7 (whole entry, looked up): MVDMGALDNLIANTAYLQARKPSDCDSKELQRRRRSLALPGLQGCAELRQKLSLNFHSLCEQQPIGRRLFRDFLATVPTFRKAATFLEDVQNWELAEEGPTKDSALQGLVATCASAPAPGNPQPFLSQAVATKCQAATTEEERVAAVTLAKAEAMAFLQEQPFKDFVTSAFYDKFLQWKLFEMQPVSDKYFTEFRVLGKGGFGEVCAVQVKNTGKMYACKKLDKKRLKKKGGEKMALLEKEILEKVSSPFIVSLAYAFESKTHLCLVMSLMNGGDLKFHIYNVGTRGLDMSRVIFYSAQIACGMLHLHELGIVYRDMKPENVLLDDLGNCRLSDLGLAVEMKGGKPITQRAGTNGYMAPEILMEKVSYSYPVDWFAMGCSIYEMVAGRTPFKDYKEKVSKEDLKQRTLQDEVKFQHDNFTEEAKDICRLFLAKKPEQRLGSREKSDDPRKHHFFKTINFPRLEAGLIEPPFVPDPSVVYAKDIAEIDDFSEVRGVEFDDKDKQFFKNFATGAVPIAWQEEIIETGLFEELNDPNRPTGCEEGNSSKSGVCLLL
# Chain of UniProt P29597 (whole entry, looked up): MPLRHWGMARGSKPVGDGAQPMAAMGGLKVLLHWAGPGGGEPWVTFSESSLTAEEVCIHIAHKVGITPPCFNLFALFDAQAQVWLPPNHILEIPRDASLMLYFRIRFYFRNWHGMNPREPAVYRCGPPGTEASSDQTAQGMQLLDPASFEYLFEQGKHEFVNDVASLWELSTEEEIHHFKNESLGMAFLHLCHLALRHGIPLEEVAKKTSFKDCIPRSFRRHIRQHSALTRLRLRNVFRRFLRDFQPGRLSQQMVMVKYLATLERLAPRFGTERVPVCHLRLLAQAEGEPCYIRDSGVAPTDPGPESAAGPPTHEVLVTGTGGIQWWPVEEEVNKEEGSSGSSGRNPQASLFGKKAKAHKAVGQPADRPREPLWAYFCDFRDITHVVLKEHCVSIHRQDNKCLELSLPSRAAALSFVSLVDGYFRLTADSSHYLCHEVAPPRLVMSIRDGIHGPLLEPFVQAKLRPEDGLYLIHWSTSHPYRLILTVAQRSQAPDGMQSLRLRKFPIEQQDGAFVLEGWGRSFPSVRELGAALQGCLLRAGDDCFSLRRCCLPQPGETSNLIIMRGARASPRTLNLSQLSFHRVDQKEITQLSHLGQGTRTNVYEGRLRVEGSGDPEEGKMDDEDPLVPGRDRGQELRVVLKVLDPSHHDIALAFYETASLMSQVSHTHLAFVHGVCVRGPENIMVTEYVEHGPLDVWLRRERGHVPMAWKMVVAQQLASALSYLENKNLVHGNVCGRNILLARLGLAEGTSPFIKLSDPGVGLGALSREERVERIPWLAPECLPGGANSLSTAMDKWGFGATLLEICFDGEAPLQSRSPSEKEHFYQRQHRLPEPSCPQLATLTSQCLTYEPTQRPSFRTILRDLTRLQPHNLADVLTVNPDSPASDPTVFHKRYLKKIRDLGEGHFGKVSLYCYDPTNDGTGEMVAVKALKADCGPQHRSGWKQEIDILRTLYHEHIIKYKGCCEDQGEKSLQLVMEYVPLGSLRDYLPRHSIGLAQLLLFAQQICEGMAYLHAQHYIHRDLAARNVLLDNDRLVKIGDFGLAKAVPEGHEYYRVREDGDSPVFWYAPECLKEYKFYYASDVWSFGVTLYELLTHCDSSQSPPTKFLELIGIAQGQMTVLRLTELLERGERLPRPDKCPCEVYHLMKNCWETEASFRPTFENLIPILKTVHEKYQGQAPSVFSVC
# Chain of UniProt P07949 (whole entry, looked up): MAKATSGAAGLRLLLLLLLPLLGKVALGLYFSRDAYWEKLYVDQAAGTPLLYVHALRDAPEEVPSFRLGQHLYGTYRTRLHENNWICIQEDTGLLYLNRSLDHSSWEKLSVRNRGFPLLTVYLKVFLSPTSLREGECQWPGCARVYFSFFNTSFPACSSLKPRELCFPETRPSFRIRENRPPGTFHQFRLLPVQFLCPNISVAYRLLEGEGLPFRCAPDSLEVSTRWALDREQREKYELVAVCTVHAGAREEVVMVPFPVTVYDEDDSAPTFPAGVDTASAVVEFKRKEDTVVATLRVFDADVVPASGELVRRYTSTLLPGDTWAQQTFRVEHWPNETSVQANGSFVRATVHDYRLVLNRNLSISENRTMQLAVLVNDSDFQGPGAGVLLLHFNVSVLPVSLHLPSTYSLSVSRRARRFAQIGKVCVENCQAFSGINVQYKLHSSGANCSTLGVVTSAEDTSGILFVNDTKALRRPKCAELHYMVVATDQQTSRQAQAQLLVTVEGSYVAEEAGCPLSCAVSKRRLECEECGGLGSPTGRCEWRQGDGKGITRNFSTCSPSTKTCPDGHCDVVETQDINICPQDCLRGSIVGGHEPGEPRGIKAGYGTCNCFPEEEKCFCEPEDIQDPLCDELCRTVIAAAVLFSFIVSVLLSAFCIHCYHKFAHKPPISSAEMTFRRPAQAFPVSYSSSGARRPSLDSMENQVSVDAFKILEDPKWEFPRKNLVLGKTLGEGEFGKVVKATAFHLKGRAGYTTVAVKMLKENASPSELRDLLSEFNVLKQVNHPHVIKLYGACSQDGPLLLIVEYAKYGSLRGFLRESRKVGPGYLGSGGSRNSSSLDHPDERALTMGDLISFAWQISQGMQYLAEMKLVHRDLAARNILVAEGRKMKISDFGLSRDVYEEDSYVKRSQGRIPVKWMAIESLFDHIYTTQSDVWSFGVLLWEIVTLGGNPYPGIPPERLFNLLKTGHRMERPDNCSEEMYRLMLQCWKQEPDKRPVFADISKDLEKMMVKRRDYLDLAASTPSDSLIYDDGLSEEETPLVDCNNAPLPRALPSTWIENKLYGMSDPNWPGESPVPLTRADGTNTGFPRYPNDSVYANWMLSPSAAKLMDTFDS
# Chain of UniProt P48736 (whole entry, looked up): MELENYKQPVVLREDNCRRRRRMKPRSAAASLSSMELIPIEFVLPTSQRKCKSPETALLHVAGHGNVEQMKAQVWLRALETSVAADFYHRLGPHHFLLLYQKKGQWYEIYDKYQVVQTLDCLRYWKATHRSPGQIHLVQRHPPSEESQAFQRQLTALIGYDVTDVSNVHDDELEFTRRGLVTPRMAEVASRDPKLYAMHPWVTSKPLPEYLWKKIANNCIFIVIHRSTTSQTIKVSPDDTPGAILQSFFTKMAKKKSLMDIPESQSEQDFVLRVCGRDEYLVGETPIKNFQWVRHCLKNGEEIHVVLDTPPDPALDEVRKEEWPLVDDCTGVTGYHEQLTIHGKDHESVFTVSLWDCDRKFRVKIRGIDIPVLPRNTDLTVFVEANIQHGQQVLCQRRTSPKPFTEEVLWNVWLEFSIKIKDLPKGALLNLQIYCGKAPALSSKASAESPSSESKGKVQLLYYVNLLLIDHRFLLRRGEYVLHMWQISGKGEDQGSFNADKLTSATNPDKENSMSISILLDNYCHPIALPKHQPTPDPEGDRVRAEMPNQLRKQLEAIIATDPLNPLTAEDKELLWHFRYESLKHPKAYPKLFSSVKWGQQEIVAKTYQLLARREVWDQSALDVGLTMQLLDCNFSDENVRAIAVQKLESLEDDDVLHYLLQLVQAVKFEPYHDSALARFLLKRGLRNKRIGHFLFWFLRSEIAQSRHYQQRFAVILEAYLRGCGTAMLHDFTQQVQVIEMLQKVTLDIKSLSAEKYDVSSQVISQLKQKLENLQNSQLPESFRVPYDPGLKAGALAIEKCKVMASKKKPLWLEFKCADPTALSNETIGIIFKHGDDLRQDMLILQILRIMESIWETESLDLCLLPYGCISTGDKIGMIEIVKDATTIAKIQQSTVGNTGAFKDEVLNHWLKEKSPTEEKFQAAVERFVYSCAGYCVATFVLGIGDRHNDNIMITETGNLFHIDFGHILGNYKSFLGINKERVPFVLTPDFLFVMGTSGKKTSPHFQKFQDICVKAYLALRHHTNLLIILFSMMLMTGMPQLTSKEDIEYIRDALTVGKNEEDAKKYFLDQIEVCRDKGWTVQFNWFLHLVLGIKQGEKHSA
# Chain of UniProt Q16539 (whole entry, looked up): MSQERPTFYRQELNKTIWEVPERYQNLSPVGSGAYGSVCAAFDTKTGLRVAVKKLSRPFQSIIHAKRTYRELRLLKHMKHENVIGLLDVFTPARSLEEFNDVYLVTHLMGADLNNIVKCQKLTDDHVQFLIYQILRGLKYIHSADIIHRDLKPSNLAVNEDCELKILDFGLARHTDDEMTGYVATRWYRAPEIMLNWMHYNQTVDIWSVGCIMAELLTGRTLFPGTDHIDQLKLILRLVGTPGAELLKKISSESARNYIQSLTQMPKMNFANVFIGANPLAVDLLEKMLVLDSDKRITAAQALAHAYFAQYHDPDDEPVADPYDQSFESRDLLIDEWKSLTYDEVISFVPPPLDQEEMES

# Series 1
# Compound: CN(C)C(=O)Cn1cc(-c2nc([C@@](C)(c3ccc(-c4cnc(N)nc4)cc3)C3CC3)no2)cn1
# Method: competition with immobilised ligand
# Tested at: 1 µM
target,assay,remaining binding [%]
"Proto-oncogene tyrosine-protein kinase receptor Ret (RET, Homo sapiens, UniProt P07949)",cell-free assay,94
"Tyrosine-protein kinase ABL1, phosphorylated (ABL1, Homo sapiens, UniProt P00519, E255K)",binding,95
"Phosphatidylinositol 4,5-bisphosphate 3-kinase catalytic subunit gamma isoform (PIK3CG, Homo sapiens, UniProt P48736)",cell-free assay,72
"Tyrosine-protein kinase ABL1, phosphorylated (ABL1, Homo sapiens, UniProt P00519, F317L)",cell-free assay,88
"Mitogen-activated protein kinase 14 (MAPK14, Homo sapiens, UniProt Q16539)",cell-free assay,90
"Hormonally up-regulated neu tumor-associated kinase (HUNK, Homo sapiens, UniProt P57058)",cell-free assay,100
"5'-AMP-activated protein kinase catalytic subunit alpha-2 (PRKAA2, Homo sapiens, UniProt P54646)",cell-free assay,100
"Rhodopsin kinase GRK7 (GRK7, Homo sapiens, UniProt Q8WTQ7)",cell-free assay,0
"Peripheral plasma membrane protein CASK (CASK, Homo sapiens, UniProt O14936)",cell-free assay,82
"Tyrosine-protein kinase ABL1, phosphorylated (ABL1, Homo sapiens, UniProt P00519, T315I)",cell-free assay,90
"Non-receptor tyrosine-protein kinase TYK2, JH2 (TYK2, Homo sapiens, UniProt P29597)",cell-free assay,65

# Series 2
# Host: human
# Medium: microsomes or S9
# Tested at: 2 µM
# Time: 0.5 h
Structure (SMILES),remaining compound
CCCn1c(=O)oc2cc(NC(=O)Nc3ccccc3OCC)ccc21,70.3%
O=C(NC1CCCCC1)c1nnn(-c2ccccc2Cl)c1-c1cccnc1,99.3%
COc1ccc(CCN2CCC(CNS(=O)(=O)c3ccc(-c4ccc(=O)[nH]n4)s3)CC2)cc1,62.1%
OC(Cn1ccnc1)c1ccc(Cl)cc1Cl (stereo not drawn),77.5%
CCCn1c(=O)c2ccc(C(=O)NC3CCCC3)cc2n2c(=O)n(Cc3ccc(C)cc3)nc12,70.1%
CCCc1ccc(-c2ccc(/C=C/C(=O)O)cc2)nc1,11.3%

# Series 3
# Target: Protein kinase C gamma type (PRKCG, Homo sapiens, UniProt P05129)
# Read-out: enzyme activity
# Mode: inhibitor
# Tested at: 0.5 µM
# Relative to: control
Compound,remaining activity [%]
C[C@@H]1CCN(C(=O)CC#N)C[C@@H]1N(C)c1ncnc2[nH]ccc12,90.6
Ic1cccc(CSc2nnc(-c3ccncc3)o2)c1,98.7
O=C(NC(NC(=S)Nc1ccc(F)c([N+](=O)[O-])c1)C(Cl)(Cl)Cl)C(c1ccccc1)c1ccccc1 (stereo not drawn),99.8
O=C1C(Cl)=C(N2C(=O)CCC2=O)C(=O)c2ccccc21,97.5
N#C/C(=C\c1ccc(O)c(O)c1)C(=O)NCc1ccccc1,97.2
c1ccc(-c2cnc(Nc3ccc(OCCN4CCCC4)cc3)s2)cc1,92.5

# Mixed results
Structure (SMILES),assay,system,conditions,endpoint,result
CC(C)n1cnc(-c2ccc(F)cc2)c1-c1ncc(C(=O)Nc2ccc(N3CCN(C)CC3)cc2)[nH]1,phase 2a clinical trial,patients with idiopathic pulmonary fibrosis,60 mg once daily,patients with Infection TEAE,0%

# Excerpt of the above (series 1):
target,assay,remaining binding [%]
"Tyrosine-protein kinase ABL1, phosphorylated (ABL1, Homo sapiens, UniProt P00519, F317L)",cell-free assay,88
"Peripheral plasma membrane protein CASK (CASK, Homo sapiens, UniProt O14936)",cell-free assay,82
